# Published values gathered from unrelated publications.
# Each numbered part is a random draw from the data of one study; scales do not carry over between parts. Changes are numbered by the printed parent chain.

# Series 1
# Target: Interferon regulatory factor 7, full length, phosphomimetic (IRF7, Homo sapiens, UniProt Q92985, residues 1-503, S471D/S472D/S475D/S476D/S477D/S483D/S484D/S487D)
# Method: protein-binding microarray
# Molecule type: double-stranded DNA, one strand shown
# Matrix: in vitro
# Concentration: 2200 nM top
# Setting: 60-bp whole probe
# Together with: salmon DNA 0.4 mg/ml
# Relative to: random background probes
# Direction: higher = stronger binding
# Constant ends, left off below: GCCTAGCAC … GTCTTGATTCGCTTGACGCTGCTG
# Construct (chain): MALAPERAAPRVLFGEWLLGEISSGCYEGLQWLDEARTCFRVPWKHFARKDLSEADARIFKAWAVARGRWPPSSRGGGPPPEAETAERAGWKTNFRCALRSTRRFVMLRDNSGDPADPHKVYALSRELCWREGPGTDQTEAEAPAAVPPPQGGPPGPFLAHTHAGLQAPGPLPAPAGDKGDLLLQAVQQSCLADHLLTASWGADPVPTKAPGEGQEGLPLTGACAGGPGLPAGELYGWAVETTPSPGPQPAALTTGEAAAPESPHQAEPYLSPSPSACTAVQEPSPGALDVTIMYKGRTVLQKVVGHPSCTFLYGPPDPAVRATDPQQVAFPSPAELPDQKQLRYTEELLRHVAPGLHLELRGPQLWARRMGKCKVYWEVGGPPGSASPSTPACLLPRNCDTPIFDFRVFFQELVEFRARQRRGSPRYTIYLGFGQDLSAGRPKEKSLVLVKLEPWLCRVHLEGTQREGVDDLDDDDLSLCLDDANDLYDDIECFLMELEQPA
Sequence,fitted relative affinity
GCCGGTCTCCTTTTCCTGACGTGCTAG,1.33 z-score
TTAGGTATCCTTATGCTTTAGTGCTAG,0.508 z-score
TCATAATTCCTGCCTGAGACTGTGCTA,1.03 z-score
TTAGGTTTCTGTCTCGGTTAGTGCTAG,2.53 z-score
GACGGTTTCGGTCTCGGGACGTGCTAG,6.58 z-score
CCAGACCCTGATCCATGCATGTGCTAG,-0.237 z-score
TTAGATATCGGGTATCGCTTAGTGCTA,0.435 z-score
TTAGGTATCGAATATCGGTTAGTGCTA,0.364 z-score
GACGGTCTCCGACTGGGGACGTGCTAG,-0.753 z-score
TTACCTTTTCACTTTACACAGTGCTAG,4.8 z-score
AATCATTCACCTGTCGTTGAGTGCTAG,1.06 z-score
TCATTTCTCCCAAGTCTTACTGTGCTA,2.24 z-score
GACGGTTTCGGGCTCGGGACGTGCTAG,3.16 z-score
TTAGGTATCCTACTGCTCTAGTGCTAG,0.545 z-score
AAACGGGCTTCTTTTTCTCAGGTGCTA,-0.25 z-score
CAAGGCAAGAAACAAACAACGTGCTAG,-1.11 z-score
TTAGGTTGCGACTATCGGTTAGTGCTA,0.244 z-score
GAAGGTTCCCTTTTCCTGACGTGCTAG,2.45 z-score

# Series 2
# Target: Ras GTPase-activating protein-binding protein 1, C-terminal RGG region (G3BP1, Homo sapiens, UniProt Q13283)
# Chain of UniProt Q13283 (whole entry, looked up): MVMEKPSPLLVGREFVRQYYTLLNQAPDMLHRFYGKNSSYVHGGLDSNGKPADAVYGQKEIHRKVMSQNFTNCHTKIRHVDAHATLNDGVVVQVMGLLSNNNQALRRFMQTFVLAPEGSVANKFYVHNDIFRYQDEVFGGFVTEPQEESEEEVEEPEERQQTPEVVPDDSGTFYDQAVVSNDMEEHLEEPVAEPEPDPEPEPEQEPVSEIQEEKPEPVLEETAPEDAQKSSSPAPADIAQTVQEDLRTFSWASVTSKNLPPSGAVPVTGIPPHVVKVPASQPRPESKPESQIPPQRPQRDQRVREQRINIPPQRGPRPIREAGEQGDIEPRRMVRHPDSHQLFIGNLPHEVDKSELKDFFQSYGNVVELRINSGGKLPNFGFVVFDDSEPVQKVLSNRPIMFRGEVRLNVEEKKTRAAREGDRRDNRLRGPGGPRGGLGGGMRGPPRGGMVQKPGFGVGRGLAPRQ
# Method: RNA Bind-n-Seq
# Molecule type: RNA
# Matrix: in vitro
# Concentration: 1 µM
# Setting: whole 134-nt RNA, ends assumed
# Together with: 150 mM KCl
# Relative to: input library
# Direction: higher = stronger binding
Sequence,log2 enrichment
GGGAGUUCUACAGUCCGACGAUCCUCAAGUCCUGUGCUACACAUCGUAUGUACCGAAUCGGAGGUGGAAAAAAAGGAAAGUAUUAUGUUACGCCGUUCGGAUCUGCACUUCCAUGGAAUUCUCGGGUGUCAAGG,-1.41
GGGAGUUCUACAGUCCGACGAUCUGGGAGGUGGAUUUUGUUUAUUUUUUUAGCUCAUUUCCAGGGGUGGGUAUUUUUUUUUAAUAUGUGUCAUGAAUAAAGUUGUUUUUGAAAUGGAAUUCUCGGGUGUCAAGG,2.89
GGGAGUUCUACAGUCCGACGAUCAAGUCCUGUGCUACACAUCGUAUGUACCGAAUCGGGGUUUUGGUUUUGGUUUUGGGGAAAGUAUUAUGUUACGCCGUUCGGAUCUGCACUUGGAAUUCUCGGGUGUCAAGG,-1.4
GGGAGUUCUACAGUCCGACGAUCCACAGACAACACGCACCCACACAGACACAGAGGGAAGGGGUUGGGAUGGGGACAGGGUGCACAGCAGAGCGGGGUAGGACCCCAGCCCCUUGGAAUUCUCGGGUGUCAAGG,-0.747
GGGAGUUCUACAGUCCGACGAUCUGGGAGGUGGAUUUUGUUUAUUUUUUUAGCUCAUUUCCAGGGGUGGGAAUUUUUUUUUAAUAUCUGUCAUGAAUAAAGUUGUUUUUGAAAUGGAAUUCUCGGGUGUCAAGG,2.67
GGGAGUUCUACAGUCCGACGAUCUCCUCAAGUCCUGUGCUACACAUCGUAUGUACCGAAUCGGUGGGGUGGUGGAAAGUAUUAUGUUACGCCGUUCGGAUCUGCACUUCCAGCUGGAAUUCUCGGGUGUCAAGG,-0.67
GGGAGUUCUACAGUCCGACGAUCUAACUUUAGAGGAGGAUCUGAUGGAUAUGGGAGUGGACGUGGAUUUGGGGAUGGCUAUAAUGGGUAUGGAGGAGGACCUGGAGGUGGCAAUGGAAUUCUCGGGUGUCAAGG,0.157
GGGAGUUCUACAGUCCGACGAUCCAAGUCCUGUGCUACACAUCGUAUGUACCGAAUCGGAAAGGUUUGGAAAAAAAGGAAAGUAUUAUGUUACGCCGUUCGGAUCUGCACUUCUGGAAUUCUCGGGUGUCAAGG,-1.82
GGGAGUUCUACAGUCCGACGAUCACCAUGCAGGUGGGCAUCUUUGGGAAGUGGGGCAAGGGGGGGAUAGGGAGGGGGGUAACACUUUGGGAACAGGUGGUCCCAGGUCGUUUGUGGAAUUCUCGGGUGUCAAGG,2.17
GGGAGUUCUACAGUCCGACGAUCUACAGACAACACGCACCCACACAGACACAGAGGGAAGGGGUUGGGAUGGGGACAGGGUGCACAGCAGGGCGGGGUAGGACCCCAGCCCCUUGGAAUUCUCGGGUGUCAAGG,-0.276
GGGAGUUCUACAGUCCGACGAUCCAAGUCCUGUGCUACACAUCGUAUGUACCGAAUCGGGCCCGGGGCCCGGGGCCCGGAAAGUAUUAUGUUACGCCGUUCGGAUCUGCACUUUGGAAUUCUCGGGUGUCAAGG,-2.07
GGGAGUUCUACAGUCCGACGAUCGUCCUGUGCUACACAUCGUAUGUACCGAAUCAAACCCCCAAAUUUAAACCCCCCCAAAAAAGUAUUAUGUUACGCCGUUCGGAUCUGCACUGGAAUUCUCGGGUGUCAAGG,-0.75
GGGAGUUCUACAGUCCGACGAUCCAAGUCCUGUGCUACACAUCGUAUGUACCGAAUCGGGAGGGAGGGAAAAAAAGGGAAAGUAUUAUGUUACGCCGUUCGGAUCUGCACUUCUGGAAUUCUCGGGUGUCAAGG,0.36
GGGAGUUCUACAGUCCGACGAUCUCAAGUCCUGUGCUACACAUCGUAUGUACCGAAUCGGUGGAAAAAGGAAAAAGGAAAGUAUUAUGUUACGCCGUUCGGAUCUGCACUUCCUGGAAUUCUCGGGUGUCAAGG,-1.29

# Series 3
# Target: CCNB1, cyclin fold, Cln2 fusion (human)
# Method: yeast growth competition, sequencing
# Matrix: yeast
# Setting: weak parent motif
# Relative to: not given
# Direction: higher = stronger binding
# Parent: E2F8 docking peptide (human); FVPQRKLEVSTED
Variant,normalised enrichment score
R5K V9L,-0.074
E8A,-0.0814
E12A,0.079
R5A L7A,0.0833
R5K V9F,0.556
R5A,0.188
P3A,0.261
K6A,0.323
T11A,0.165
Q4A,-0.421
R5K,0.231

# Series 4
# Target: RNA binding protein fox-1 homolog 2, RRM domain, GST-SBP tag (RBFOX2, Homo sapiens, UniProt O43251-10, residues 100-194)
# Method: RNA Bind-n-Seq
# Molecule type: RNA
# Matrix: in vitro
# Concentration: 365 nM
# Setting: natural RNA segment, single round, ends assumed
# Relative to: no-protein control
# Direction: higher = stronger binding
# Target sequence (chain): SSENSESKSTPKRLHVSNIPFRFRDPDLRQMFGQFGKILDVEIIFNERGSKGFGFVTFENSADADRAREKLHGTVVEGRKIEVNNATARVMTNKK
Sequence,RBNS enrichment (R)
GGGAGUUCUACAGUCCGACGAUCUACAUUGGUAUCUACAAGACAUUAUAGAGCACCUGAAGUUAUUUUAGCCCUAGGGUGGUCCCAACCAUGUGAUGUCUGGAGCAUAGGAUGCAUUCUUAUUGAAUACUAUCUGGAAUUCUCGGGUGCCAA,0.282
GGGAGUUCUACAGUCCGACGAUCAAGAGGAAGAGGGAGGGAAGGGGAGCAAGCAAAUCCAGGUCUUUUCUUGUACCAGUGGAACCUGCUCUGAAUCUCCCAAGUCCUCCACUGUGAAUUGGGCUGGGUGGGGGUGGAAUUCUCGGGUGCCAA,0.871
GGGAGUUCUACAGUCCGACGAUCUCCAGGUUGUGGGCUAUGGUAUUUGGGAUCCUGCAAAAGCACAUACACGUUUGUUCUAUGUUGUAAGUGUCACUCUGAAAGAAGUUUAACAGUAUCUGGUUUUUAAAAUAUGGAAUUCUCGGGUGCCAA,1.48
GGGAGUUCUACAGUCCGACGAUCACCUGAAGAAAGCCUCUCAGUGUGGAGAUAAUUUAUUUUUACCUUCACUGUGACCUUGAGAAGAUUCUUCCCAUUCUCCAUUUGUUAUCUGGGAACUUAUUAAAUGGAAAUGGAAUUCUCGGGUGCCAA,2.1
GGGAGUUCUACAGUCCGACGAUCGCAGGGAGAAUACUUCCAACAGUUGAGGUGUUACCAAACCACUUGAGAAUUCAUGAGCACUUUAACUCUAAACUCUGAAUUUCAAAGCUUGAUGUGAAGUCCUCUAGAAUUGGAAUUCUCGGGUGCCAA,0.603
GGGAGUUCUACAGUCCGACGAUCACCUCCGAGUGCUUUGUCUCCACUCAGUACCUUGGAUCAGAGCUGCUGAGUUCAGGAUGCCUGCGUGUGGUUUAGGUGUUAGCCUUCUUACAUGGAUGUCAGGAGAGCUGUGGAAUUCUCGGGUGCCAA,0.297
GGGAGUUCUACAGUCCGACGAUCGAGAGGGGCCCAUUCACCUUUCUCCUAGAAUGCUGUUGUAAAUAAACAAAUGGAUCCCUGGAAACUUCUCAAGCUUUGCUUUGGAGCCUUGGGUGAGCCCCUGGAUGUGGUGGAAUUCUCGGGUGCCAA,1.04
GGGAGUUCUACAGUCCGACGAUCGUUUCUGAGUUUAGCCUAUAUAAACAUACUAUAUGUGCCCAGAGGUCUACAGUCACCCUUUUUUAUAAACAUAAAAAGACAUCUAGACUUAUUUUUACAAAUUAUUGGAAUGGAAUUCUCGGGUGCCAA,0.443
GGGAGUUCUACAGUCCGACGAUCUUCAUUUAAGCAAAACCAUACAUUAUCUUUUCCAGUCCUUUCUUGUAUUCUUACUGUUUUUUUAAAAUAACUUUUUGCCUUAAUAGCUCAUUGUCACUAAUAACUUCUGUUGGAAUUCUCGGGUGCCAA,0.518
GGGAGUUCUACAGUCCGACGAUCGGACACCAGAGGCUGCCUUAGCAGAUGGGUCACACUGCUUCCAGCCUUAGCCAGCCAGUGACAAGUGAAUCCAGACGUCACCCAUGUGUUUUGGAACAUUUAUGUAAGAUUGGAAUUCUCGGGUGCCAA,0.34
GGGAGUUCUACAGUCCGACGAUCGCAGGUGAGGGGGUCUGCGGUGGCUCCUGUCUUCCCUGCAGCAGGGAAGGAGGGCCGUGUGGUGCUUUGCUAGAUAGGACGGUUUUUGCAAAGCACCUGGAGAUGUUUGCUGGAAUUCUCGGGUGCCAA,2.07
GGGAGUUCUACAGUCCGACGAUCGGAGGCAUGUGCCUUGGGAAAAUAGGAAUUGUGUGUUUGUUUUUGUUUUUGUUUUUGUUUUUUUCUGGAUAAGGAAAACAGAGAACAACAAUAGAUACCGCUGAAGGAUCUGGAAUUCUCGGGUGCCAA,0.634

# Series 5
# Target: ABI1, truncated, D143A, DHFR fusion (Arabidopsis thaliana)
# Method: DHFR PCA, deep sequencing
# Matrix: yeast
# Setting: methotrexate growth selection, single substitutions
# Together with: (+)-ABA 0.39 µM
# Relative to: wild-type fitted maximum
# Direction: higher = stronger binding
# Parent: PYL1, truncated, DHFR fusion (Arabidopsis thaliana); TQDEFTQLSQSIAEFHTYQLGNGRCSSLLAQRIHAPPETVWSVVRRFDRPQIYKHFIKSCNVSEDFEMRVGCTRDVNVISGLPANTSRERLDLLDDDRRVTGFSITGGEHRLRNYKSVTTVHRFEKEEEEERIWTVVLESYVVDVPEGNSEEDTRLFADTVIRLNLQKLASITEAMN
Variant,relative binding score
V145M,-26.1%
T86Q,15.9%
V143A,8.79%
Q10E,59.7%
G23H,12.3%
E125Q,65.6%
S26P,-8.48%
T173I,2.01%
P37F,-4.41%
Q167E,48.2%
Q7S,42.8%
E130D,61.7%
E129R,27.1%
D75F,41.7%
C60I,1.12%
S27W,-5.66%
T160V,-5.74%

# Mixed results
Molecule,target,test,system,conditions,how to read,quantity,result
"PhoQ, residues 284 288 289 292 302 303 SSYNSA","PhoP, residues 12 14 15 18 19 IFFTR (Escherichia coli, UniProt P23836)","Sort-seq, refers to: YFP reporter",E. coli,"PhoQ-PhoP variant library, together with: 10 µM Mg2+","relative to: high Mg2+ state, higher = stronger signaling",fold induction,20.7
